Measurements of several laboratories.
Each line is one published result; not all experiments were run side by side. Numbers after ± are the reported error.
ESR1: Estrogen receptor (ESR1, Homo sapiens, UniProt P03372)
Sequence of UniProt P03372 (whole entry, looked up): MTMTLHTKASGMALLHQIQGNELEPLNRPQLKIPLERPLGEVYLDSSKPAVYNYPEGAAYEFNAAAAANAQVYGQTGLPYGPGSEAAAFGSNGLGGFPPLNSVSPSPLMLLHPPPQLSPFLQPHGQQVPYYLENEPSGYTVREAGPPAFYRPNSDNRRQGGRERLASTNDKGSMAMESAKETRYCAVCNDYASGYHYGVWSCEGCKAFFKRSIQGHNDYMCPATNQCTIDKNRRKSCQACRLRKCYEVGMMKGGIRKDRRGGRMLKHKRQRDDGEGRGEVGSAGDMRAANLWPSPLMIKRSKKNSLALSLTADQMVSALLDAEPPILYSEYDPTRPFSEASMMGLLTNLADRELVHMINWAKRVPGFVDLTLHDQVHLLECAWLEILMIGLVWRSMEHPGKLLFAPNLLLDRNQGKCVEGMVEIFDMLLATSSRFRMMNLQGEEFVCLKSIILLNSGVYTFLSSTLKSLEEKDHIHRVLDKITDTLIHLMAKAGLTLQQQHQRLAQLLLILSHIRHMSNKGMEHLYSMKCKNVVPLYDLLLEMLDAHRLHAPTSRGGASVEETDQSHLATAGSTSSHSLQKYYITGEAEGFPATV
DRD3: D(3) dopamine receptor (DRD3, Homo sapiens, UniProt P35462)
Sequence of UniProt P35462 (whole entry, looked up): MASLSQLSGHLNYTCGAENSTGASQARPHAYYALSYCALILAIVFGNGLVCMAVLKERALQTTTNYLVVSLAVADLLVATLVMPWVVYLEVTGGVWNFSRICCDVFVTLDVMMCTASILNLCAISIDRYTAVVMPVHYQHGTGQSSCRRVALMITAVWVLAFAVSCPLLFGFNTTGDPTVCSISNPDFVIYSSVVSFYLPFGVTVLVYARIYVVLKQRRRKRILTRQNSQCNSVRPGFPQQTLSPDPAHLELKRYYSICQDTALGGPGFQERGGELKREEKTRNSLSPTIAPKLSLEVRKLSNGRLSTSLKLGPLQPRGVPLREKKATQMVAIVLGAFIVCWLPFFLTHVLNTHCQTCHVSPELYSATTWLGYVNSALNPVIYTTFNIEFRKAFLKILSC
CDK2: Cyclin-dependent kinase 2 (CDK2, Homo sapiens, UniProt P24941)
CDK2 with cyclin A: Cyclin-dependent kinase 2, with cyclin A (CDK2, Homo sapiens, UniProt P24941)
SLC10A1: Hepatic sodium/bile acid cotransporter (SLC10A1, Homo sapiens, UniProt Q14973)
Sequence of UniProt Q14973 (whole entry, looked up): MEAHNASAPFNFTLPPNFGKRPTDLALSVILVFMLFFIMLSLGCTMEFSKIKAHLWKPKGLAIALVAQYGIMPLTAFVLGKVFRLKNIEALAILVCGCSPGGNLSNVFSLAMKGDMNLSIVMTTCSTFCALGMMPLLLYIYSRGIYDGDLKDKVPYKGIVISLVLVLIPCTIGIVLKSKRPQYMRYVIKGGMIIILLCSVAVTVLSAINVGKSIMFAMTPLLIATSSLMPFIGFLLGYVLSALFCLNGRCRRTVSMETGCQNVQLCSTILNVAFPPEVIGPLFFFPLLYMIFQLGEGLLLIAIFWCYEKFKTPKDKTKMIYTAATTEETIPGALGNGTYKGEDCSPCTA

COc1ccc(-c2coc3cc(O[C@@H]4O[C@H](CO)[C@@H](O)[C@H](O)[C@H]4O)ccc3c2=O)cc1O
EC50 (ESR1; array formation, agonist; ERα-GFP PRL-HeLa; 1 h): 1.42 µM

CC(=O)c1ccc(NS(=O)(=O)c2c(C)[nH]c(C)c2C(=O)N2CCC(F)(F)C2)cc1Cl
IC50 (DRD3; β-arrestin recruitment, antagonist, PathHunter; added: dopamine EC80): > 100 µM

COc1ccccc1NC(=O)CSc1nncn1C
Kd (CDK2; binding): > 100 µM

Cc1ccc(NS(=O)(=O)c2c(C)[nH]c(C)c2C(=O)NC2CCCC2)cc1Cl
IC50 (DRD3; Go activation, antagonist, BRET; added: dopamine): > 100 µM

O=C(O[C@@H]1Cc2c(O)cc(O)cc2O[C@@H]1c1ccc(O)c(O)c1)c1cc(O)c(O)c(O)c1
EC50 (ESR1; array formation, agonist; ERα-GFP PRL-HeLa; 1 h): 6.16 µM

Cc1[nH]c(C)c(S(=O)(=O)Nc2ccc([S+](C)[O-])c(Cl)c2)c1C(=O)N1CCC(F)(F)C1 (stereo not shown)
IC50 (DRD3; Go activation, antagonist, BRET; added: dopamine): > 100 µM

O=C(CSc1nnc(-c2ccncc2)o1)Nc1ccc(F)cc1
Kd (CDK2 with cyclin A): > 100 µM

CN(C)C(=O)c1c[nH]cc1S(=O)(=O)Nc1ccc(C(F)(F)F)c(Cl)c1
IC50 (DRD3; β-arrestin recruitment, antagonist, PathHunter; added: dopamine EC80): > 100 µM

COc1ccc(/C=C/C(=O)c2c(O)cc(OC)cc2OC)cc1
EC50 (ESR1; array formation, agonist; ERα-GFP PRL-HeLa; 1 h): 6.2 µM

Cc1ncc([N+](=O)[O-])n1CCO
Ki (SLC10A1; taurocholate uptake, inhibitor; NTCP-expressing HEK293; added: 10 µM taurocholate): 369 ± 83 µM

Cc1c(NS(=O)(=O)c2cccc3nonc23)c(=O)n(-c2ccccc2)n1C
Kd (CDK2; binding): > 100 µM

Cc1[nH]c(C)c(S(=O)(=O)Nc2ccc(NS(C)(=O)=O)c(Cl)c2)c1C(=O)N1CCC(F)(F)C1
IC50 (DRD3; Go activation, antagonist, BRET; added: dopamine): > 100 µM

CC(C)c1cc(C(=O)N2Cc3ccc(CN4CCN(C)CC4)cc3C2)c(O)cc1O
IC50 (binding, radioligand competition; mouse brain homogenate; 60 min, 37 °C, added: [3H]HSP990 0.5 nM): 0.034 µM

COc1ccc(-c2oc3cc(O)cc(O)c3c(=O)c2O)cc1
EC50 (ESR1; array formation, agonist; ERα-GFP PRL-HeLa; 1 h): 1.17 µM

CC(C)C[C@H](NC(=O)C[C@H](O)[C@H](CC(C)C)NC(=O)[C@H](Cc1c[nH]cn1)NC(=O)CNC(=O)[C@@H](NC(=O)[C@H](C)NC(=O)[C@H](Cc1c[nH]c2ccccc12)NC(=O)[C@H](CCC(N)=O)NC(=O)[C@@H](Cc1ccccc1)NC(=O)COCCOCCNC(=O)CN1CCN(CC(=O)O)CCN(CC(=O)O)CCN(CC(=O)O)CC1)C(C)C)C(N)=O [lutetium-177 labelled]
tissue uptake (BALB/c nu/nu mice, female, lumbar lymph node metastases; intravenous, 50 pmol, 1 h): 19 ± 4 %ID/g

COc1ccc(-c2cc(=O)c3c(O)cc(O)cc3o2)cc1
EC50 (ESR1; array formation, agonist; ERα-GFP PRL-HeLa; 1 h): 5.64 µM

COc1ccccc1NC(=O)CSc1nnc(-c2ccc([N+](=O)[O-])cc2)n1-c1ccccc1
Kd (CDK2 with cyclin A): > 100 µM

CNCc1ccc(-c2[nH]c3cc(F)cc4c3c2CCNC4=O)cc1
cough incidence (patients; oral, 840 mg twice daily, all grades): 66.7%

c1csc(CNc2cc[nH]n2)c1
cells with numerical aberrations (human peripheral blood lymphocytes (female); 1560 µg/mL, 4 h, initial, added: with S9): 0%

Cc1cn([C@H]2C[C@H](N=[N+]=[N-])[C@@H](CO)O2)c(=O)[nH]c1=O
Ki (SLC10A1; taurocholate uptake, inhibitor; NTCP-expressing HEK293; added: 10 µM taurocholate): 351 ± 72 µM

CC(C)C[C@H](NC(=O)C[C@H](O)[C@H](CC(C)C)NC(=O)[C@H](Cc1c[nH]cn1)NC(=O)CNC(=O)[C@@H](NC(=O)[C@H](C)NC(=O)[C@H](Cc1c[nH]c2ccccc12)NC(=O)[C@H](CCC(N)=O)NC(=O)[C@@H](Cc1ccccc1)NC(=O)COCCOCCNC(=O)CCC(C(=O)O)N1CCN(CC(=O)O)CCN(CC(=O)O)CCN(CC(=O)O)CC1)C(C)C)C(N)=O (stereo partly shown) [lutetium-177 labelled]
tissue uptake (BALB/c nu/nu mice, bone; intravenous, 100 pmol, 1 h, added: PA 300 µg): 0.1 ± 0.1 %ID/g

Cc1[nH]c(C)c(S(=O)(=O)Nc2ccc(C(F)(F)F)c(Cl)c2)c1C(=O)N1CC(F)(F)C1
IC50 (DRD3; β-arrestin recruitment, antagonist, PathHunter; added: dopamine EC80): > 100 µM

F[C@@H]1CCN(c2ccc(-c3ccc4sc(-c5cccnc5)cc4n3)cn2)C1
Kd (binding, [3H]compound homologous binding; Alzheimer's disease brain homogenate): 0.17 ± 0.06 µM

CC(C)NCC(O)COc1ccc(CC(N)=O)cc1 (stereo not shown)
Ki (SLC10A1; taurocholate uptake, inhibitor; NTCP-expressing HEK293; added: 10 µM taurocholate): 167 ± 55 µM

COc1ccc(-c2oc3c(CC=C(C)C)c(O[C@@H]4O[C@H](CO)[C@@H](O)[C@H](O)[C@H]4O)cc(O)c3c(=O)c2O[C@@H]2O[C@@H](C)[C@H](O)[C@@H](O)[C@H]2O[C@@H]2O[C@@H](C)[C@H](O)[C@@H](O)[C@H]2O)cc1
EC50 (ESR1; array formation, agonist; ERα-GFP PRL-HeLa; 1 h): 2.63 µM

CC[C@]1(O)C[C@@H]2CN(CCc3c([nH]c4ccccc34)[C@@](C(=O)OC)(c3cc4c(cc3OC)N(C)[C@H]3[C@@](O)(C(=O)OC)[C@H](OC(C)=O)[C@]5(CC)C=CCN6CC[C@]43[C@@H]65)C2)C1
Ki (SLC10A1; taurocholate uptake, inhibitor; NTCP-expressing HEK293; added: 10 µM taurocholate): 159 ± 140 µM

O=c1cc(-c2ccc(O)cc2)oc2cccc(O)c12
EC50 (ESR1; array formation, agonist; ERα-GFP PRL-HeLa; 1 h): 0.122 µM

NC(=O)c1cnc2[nH]ccc2c1N[C@@H]1[C@@H]2CC3C[C@H]1C[C@@](O)(C3)C2
percent change (CD8+ CD28+ naive T cells, flow cytometry; Japanese humans, peripheral blood; 200 mg single dose; reference: baseline): 0.15%

O=C(/C=C/c1ccc(O)cc1)c1ccc(O)cc1O
EC50 (ESR1; array formation, agonist; ERα-GFP PRL-HeLa; 1 h): 0.828 µM

Cc1nonc1OCCNc1cc(N2CCOCC2)ccc1[N+](=O)[O-]
Kd (CDK2 with cyclin A): > 100 µM

CCCc1nc2c(C)cc(-c3nc4ccccc4n3C)cc2n1Cc1ccc(-c2ccccc2C(=O)O)cc1
Ki (SLC10A1; taurocholate uptake, inhibitor; NTCP-expressing HEK293; added: 10 µM taurocholate): 65 ± 9.1 µM

CC(Sc1nc2ccccc2[nH]1)C(=O)Nc1ccc(S(N)(=O)=O)cc1 (stereo not shown)
Kd (CDK2; binding): > 100 µM

Cc1ccc(NS(=O)(=O)c2c(C)[nH]c(C)c2C(=O)N2CCC(F)(F)C2)nc1Br
IC50 (DRD3; β-arrestin recruitment, antagonist, PathHunter; added: dopamine EC80): > 100 µM

COC(=O)c1ccc(NC(=O)CSc2nnnn2-c2ccccc2OC)cc1
Kd (CDK2; binding): > 100 µM

COc1ccccc1Oc1c(NS(=O)(=O)c2ccc(C(C)(C)C)cc2)nc(-c2ncccn2)nc1OCCO
Ki (SLC10A1; taurocholate uptake, inhibitor; NTCP-expressing HEK293; added: 10 µM taurocholate): 92.9 ± 14 µM

COc1cc(NC(=O)CSc2nncn2C)cc(OC)c1OC
Kd (CDK2; binding): > 100 µM

CC(C)[C@H](NC(=O)[C@@H](NC(=O)CCCc1cn(CC(O)CN2CCN(CC(=O)O)CCN(CC(=O)O)CCN(CC(=O)O)CC2)nn1)[C@@H](C)O)C(=O)N[C@@H](CCCNC(=N)N)C(=O)N[C@H](C(=O)N[C@@H](CO)C(=O)N[C@@H](C)C(=O)N[C@@H](CC(=O)O)C(=O)O)[C@@H](C)O (stereo partly shown)
percent dose excreted (ICP-MS, refers to: gadolinium; healthy men, urine; intravenous, 0.08 mmol/kg): 117 ± 5.71%

O=C1[C@H](CC[C@H](O)c2ccc(F)cc2)[C@@H](c2ccc(O)cc2)N1c1ccc(F)cc1
Ki (SLC10A1; taurocholate uptake, inhibitor; NTCP-expressing HEK293; added: 10 µM taurocholate): 53.8 ± 3.3 µM

CC(C)[C@H](NC(=O)[C@H](Cc1ccc(O)cc1)NC(=O)[C@H](Cc1ccc(O)cc1)NC(=O)[C@@H]1CCCN1C(=O)[C@H](CCC(=O)O)NC(=O)[C@H](CCC(=O)O)NC(=O)[C@H](Cc1c[nH]c2ccccc12)NC(=O)[C@@H]1CCCN1C(=O)[C@@H](NC(=O)[C@H](CCC(N)=O)NC(=O)c1ccc2c(c1)C(=O)OC21c2ccc(O)cc2Oc2cc(O)ccc21)C(C)C)C(=O)N[C@H](C(=O)N[C@@H](CCCCN)C(=O)N[C@@H](CCCCN)C(=O)N[C@@H](CO)C(=O)N[C@@H](CO)C(=O)NCC(=O)NCC(N)=O)C(C)C
plasma concentration (human, plasma; intravenous infusion, 189.6 mg, 0.5 h): 16600 ng/mL

CC(C)[C@H]1CC[C@H](C(=O)N[C@H](Cc2ccccc2)C(=O)O)CC1
Ki (SLC10A1; taurocholate uptake, inhibitor; NTCP-expressing HEK293; added: 10 µM taurocholate): 111 ± 7 µM

Cc1nc(N)nc2c1C(=O)N[C@@H](c1ccc(F)cc1-c1cccc(OCCF)n1)C2
IC50 (binding, radioligand competition; mouse brain homogenate; 60 min, 37 °C, added: [3H]HSP990 0.5 nM): 0.385 µM

Cc1c(C(=O)N(C)C)c(S(=O)(=O)Nc2ccc(C(F)(F)F)c(Cl)c2)c(C)n1C
IC50 (DRD3; β-arrestin recruitment, antagonist, PathHunter; added: dopamine EC80): > 100 µM

Cn1cc(-c2ccc(-c3cncc(Cl)c3N3CCC4(CCNC4=O)CC3)cc2)cn1
log2 fold change (COLO 205; gene expression, microarray, refers to: HIVEP2 mRNA; concentration not given, 6 h; reference: untreated cells): 1.64

A few entries again:
Cc1nonc1OCCNc1cc(N2CCOCC2)ccc1[N+](=O)[O-]
Kd (CDK2 with cyclin A): > 100 µM

COc1ccccc1NC(=O)CSc1nncn1C
Kd (CDK2; binding): > 100 µM

Cc1c(NS(=O)(=O)c2cccc3nonc23)c(=O)n(-c2ccccc2)n1C
Kd (CDK2; binding): > 100 µM

CC(=O)c1ccc(NS(=O)(=O)c2c(C)[nH]c(C)c2C(=O)N2CCC(F)(F)C2)cc1Cl
IC50 (DRD3; β-arrestin recruitment, antagonist, PathHunter; added: dopamine EC80): > 100 µM
